Published values from different studies.
Each numbered part is a random draw from the data of one study; scales do not carry over between parts.

Sample 1
Target: Histone acetyltransferase KAT6A, winged helix 1, GST fusion (KAT6A, Homo sapiens, UniProt Q92794, residues 1-85)
Method: protein binding microarray
Molecule type: double-stranded DNA, one strand shown
Medium: in vitro
Tested at: not given
Setting: 8-mer, flanks averaged, mean of 2 arrays, mostly near background
Reference: not given
Reading: higher = stronger binding
Measurement: E-score
Residues (chain): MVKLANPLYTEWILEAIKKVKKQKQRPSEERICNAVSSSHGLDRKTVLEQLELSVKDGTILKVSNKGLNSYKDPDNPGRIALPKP
AATTTAGG: -0.195
AGACCAAG: -0.0682
CCCTTTGA: -0.133
AGGGAGCG: 0.157
CCCCGTGA: 0.171
TTCTCCAA: -0.204
GATTGTGC: 0.0348
GCGGACAA: 0.115
ACCCCTAT: -0.0679
ACGGCGTA: 0.293
AGTGCGAA: 0.00783
AGTGGCCG: 0.061
CCGGTGAA: 0.215
CAGCGCAG: 0.306
CGCAGGGC: 0.189
ACCTTGAG: -0.168
GCTATGGA: -0.0177
CTAGTTGC: -0.126
CGATGGAC: 0.0664
CTACACCA: -0.243
ATAAGCCA: -0.252
ATCCGTGA: 0.269
CAGAGTTA: -0.13
ACCTGGAC: -0.156
ATGGAGTG: -0.116

Sample 2
Target: RNA binding protein fox-1 homolog 2, RRM domain, GST-SBP tag (RBFOX2, Homo sapiens, UniProt O43251-10, residues 100-194)
Method: RNA Bind-n-Seq
Molecule type: RNA
Medium: in vitro
Tested at: 365 nM
Setting: natural RNA segment, single round, ends assumed
Reference: no-protein control
Reading: higher = stronger binding
Measurement: RBNS enrichment (R)
Constant ends, left off below: GGGAGUUCUACAGUCCGACGAUC … UGGAAUUCUCGGGUGCCAA
CCAUCCUCACCAUCGCCUUCCCUUUUCUCCUGCACCCCUGUAGUCUACCUCUACAGUCUCCAUGACCCCCAGCCUCUUAGCCCCUGCACCUGUCGUUUAACCCUGUCAUG: 1.91
UCCUCUGACUUGGUUUGUAAGUAACCUGUAAUAAAAUGGCAUAUGCACUUUAACCAGCCCUGUGAUCCGUACGAGUGUAGCAGCAAGAGGACUCUGUUGACAGGCACGUU: 4.89
AUUUUUUUGAAUGACUACAGUAUGGACAAUUUCAAAAACCAAAACCCACUUUGGAUUGGUGGAAGUAAAAACUGGUAACUCACUCAAGUGAAUGAAUGGUCUUGCAUUUU: 0.529
CCAUAGUUCCUGCCUGCCAUCCUUCUGUGAGGGUCCAUUGCUGCUUGAUGGCCAUCUCUGCCUUUUAUAGUCACCUGACACUGACCUACAUCUCUCGCUUGCUUAAAGUC: 3.3
UGUGCUCCCACGGUUCCCAGGGGCCAGGCUGGGAGCCCACAGCCACCCCACUAUGCCGCAGGCCGCCCUACCCACCUUCAGGCAGCCUAUGGGACGCAGGGCCCCAUCUG: 0.454
UGCCUGUGGGACAAAGGACAGGAUGUAUGAAUUUAGGCCAAAGGUCCUAUGGUCCAUUUGCAGGGUUGGAAAGGCCCUUGCCAUCUCUUAGGCCUCCAUUUAAGCCCAUG: 0.813
UUUCCACUCUUUUCAGUCCUUCAUGUUAAAGAUUUAGACACCACAUACAACUGGUAAAGGACGUUUUCUUGAGAGUUUUAACUAUAUGUAAACAUUGUAUAAUGAUAUGG: 0.385
GCUGAGCCAGGAGGAUCGCUUGAGCCCAGGAGGCGGAGGUUGCAGUGAGCUGAGAUGGCACCACUUAUUGCACUCCAGCCCGGGCGACAGAGCGAGACUCCAUCUACCAG: 0.526

Sample 3
Target: Interferon regulatory factor 3, full length, phosphomimetic (IRF3, Homo sapiens, UniProt Q14653, residues 1-427, S386D/S396D/S398D/S402D/T404D/S405D)
Method: protein-binding microarray
Molecule type: double-stranded DNA, one strand shown
Medium: in vitro
Tested at: 2540 nM top
Setting: 60-bp whole probe
Added: salmon DNA 0.4 mg/ml
Reference: random background probes
Reading: higher = stronger binding
Measurement: fitted relative affinity
Constant ends, left off below: GCCTAGCAC … GTCTTGATTCGCTTGACGCTGCTG
Residues (chain): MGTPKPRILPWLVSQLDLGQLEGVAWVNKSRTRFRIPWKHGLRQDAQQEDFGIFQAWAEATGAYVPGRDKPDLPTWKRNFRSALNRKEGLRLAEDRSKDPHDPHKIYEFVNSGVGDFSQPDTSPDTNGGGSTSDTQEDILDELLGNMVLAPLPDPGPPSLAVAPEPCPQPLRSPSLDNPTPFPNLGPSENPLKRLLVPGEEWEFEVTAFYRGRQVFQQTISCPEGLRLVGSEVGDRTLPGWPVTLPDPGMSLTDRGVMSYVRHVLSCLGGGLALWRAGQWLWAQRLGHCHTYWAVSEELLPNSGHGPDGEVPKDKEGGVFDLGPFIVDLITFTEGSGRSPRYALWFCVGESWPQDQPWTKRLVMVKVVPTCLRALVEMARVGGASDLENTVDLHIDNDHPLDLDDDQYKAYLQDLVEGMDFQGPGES
AGCCGTCTCCACCTGGGCAAGTGCTAG: 0.0662 z-score
TTAGGTATCGGGTTTCGCTTAGTGCTA: 2.69 z-score
ATGACCTCACTGCCTGACACGTGCTAG: -0.15 z-score
GACGAACTGAGACTGGAGACGTGCTAG: -0.199 z-score
TTCATTTTCTGAATGTCCTCGTGCTAG: 2.34 z-score
GTCGGTATCGACACTGGGGACGTGCTA: 1.54 z-score
TCACCTCTTTCTTTGCTACTGTGCTAG: 1.43 z-score
TTAGATGTCAGTTCCGATTAGTGCTAG: 1.85 z-score
TTAAGTATCGGGACTGGGTTAGTGCTA: 1.37 z-score
GACGATATCACTATCGAGACGTGCTAG: 1.25 z-score
TGAGGTATCGGGTTTCGGTTAGTGCTA: 3.81 z-score
GACGATATCAGATTCGAGACGTGCTAG: 1.71 z-score
TTAAAACTGAGTCTCGATTAGTGCTAG: -0.333 z-score
TCATCTTTCCAACTCTGACTGTGCTAG: 2.97 z-score
TTAGATAGCGGGACTGGATTAGTGCTA: -0.731 z-score
GTCCCTGAATGAAAACATCATGTGCTA: 0.374 z-score
TTAGGTCTCCTTATCCTTTTGTGCTAG: 3.22 z-score
TCAATTGTGGTTTTCATACTGTGCTAG: 1.99 z-score
CTTTTTTTCCGAGTGAGTAAGTGCTAG: 3.31 z-score

Sample 4
Target: RING finger protein unkempt homolog, zinc fingers 1-6, GST-SBP tag (UNK, Homo sapiens, UniProt Q9C0B0, residues 30-357)
Chain of UniProt Q9C0B0 (30-357, looked up): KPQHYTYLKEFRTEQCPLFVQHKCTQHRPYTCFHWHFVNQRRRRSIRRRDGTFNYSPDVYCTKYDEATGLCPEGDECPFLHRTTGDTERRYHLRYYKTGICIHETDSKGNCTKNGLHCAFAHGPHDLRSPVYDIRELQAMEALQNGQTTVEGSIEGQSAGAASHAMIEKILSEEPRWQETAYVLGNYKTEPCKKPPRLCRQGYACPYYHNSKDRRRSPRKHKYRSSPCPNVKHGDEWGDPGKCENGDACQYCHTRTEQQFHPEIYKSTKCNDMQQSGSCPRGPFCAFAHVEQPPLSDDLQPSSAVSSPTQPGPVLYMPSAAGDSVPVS
Method: RNA Bind-n-Seq
Molecule type: RNA
Medium: in vitro
Tested at: not given
Setting: RNA with constant flanks, ends assumed
Reference: input RNA pool
Reading: higher = stronger binding
Measurement: bound/input enrichment
Constant ends, left off below: GGGAGUUCUACAGUCCGACGAUC … CAACAGAGGAUUGAGCAUCA
GAGAGCUGCCUGGUGUCAGGUAGAGAGGACACUGUACCUGGGUGAAUGAUCAGACCCUGGCCGCUAAGAAGGAACUUGUCCCUUUGAGUCAGUGUGCAGACCCCCUUUCAGGCCAUGCCU: 0.115 ratio
CCCUUUGGCGGACCUUUUGAUGUGAGUAGAUGUUUUCUAGGAUAAAAUUUAAGGACUAAUUUCCGACUUAAAACAUUCCACUUUUGUAAGUUGUUUUCAGUGGUCUUAUGUAGAGCAAGC: 1.6 ratio
CAAUCAAGCUACAGACAGUCGAGUCCAGGCGUGUGCAGCUGUGUGGAGGAUGCCCAAGGAAUCCGAAUCCGGUAGCCACGAGUCCCCUGACGACCCUGCAAGCACUGCUCAGACCCUGGA: 0.0652 ratio
UGAUUUGCAAGUGGGGGGGAAAGCUACUGUGAGCGUGUGUUUUAUUUUUUAAAUUACACUACCGAGUGAUUUCCCCCCCCCCCCAAUGUCAAGUUUUUACCCUGCAUGUACUGGAGUAUU: 0.962 ratio
GCACGUACAGCCCUGAAUGCAGGUGCAGUUUGGGUUUUUUGUUUUGUUUUGUUUUGUUUUAUCCGCCAGUGGGCAAAGUGAAAUGUAAUUUUGGGUAAGCCAGGGCUACUUUAGCUUUUC: 0.312 ratio
ACCCCUGCUUUGUACAUGCUGUCUCCCUUCAGUCCUCUCAGAAGAAUAUCUAUUAAGAUUUCCGUGCACUCCUUAUUCAGCAUGCUAAUCAUGUGCACAAUUCUGACAAACUGCAUAUUC: 0.188 ratio
AAAUUUAAAAAUUCUUUCUGUUGUACAGAAUUAAAUGAAGAAAUCAAACAGUCUCAUUCUUUCCGUUUACAGACACCUUGUUCAAAAGGUAGUGAAUUAAGAAUGAUUAAUAAAAAUCCU: 0.344 ratio
UCUCGGGGUUUCAAAACGUUGAAAUCAAGGACACGACGUUUGCAGUCUACCUCUGAAAGAUCCGCCGAAGCACAGAAUAUAGCACCAUCAUUUGUGAAGGGGUUUCUUUUGCGGGACAGA: 0.173 ratio

A few entries again (sample 1):
ATAAGCCA: -0.252
ACCTTGAG: -0.168
CAGAGTTA: -0.13
